Measured values of several laboratories.
Numbered parts are unrelated; each lists some results of a single study. Changes are numbered by the printed parent chain.

Block 1 — method: protein-binding microarray; form: double-stranded DNA, one strand shown; medium: in vitro; tested at: 2200 nM top; setting: 60-bp whole probe; added: salmon DNA 0.4 mg/ml; baseline: random background probes; reading: higher = stronger binding; constant ends, left off below: GCCTAGCAC … GTCTTGATTCGCTTGACGCTGCTG
Target: Interferon regulatory factor 7, full length, phosphomimetic (IRF7, Homo sapiens, UniProt Q92985, residues 1-503, S471D/S472D/S475D/S476D/S477D/S483D/S484D/S487D)
Construct (chain): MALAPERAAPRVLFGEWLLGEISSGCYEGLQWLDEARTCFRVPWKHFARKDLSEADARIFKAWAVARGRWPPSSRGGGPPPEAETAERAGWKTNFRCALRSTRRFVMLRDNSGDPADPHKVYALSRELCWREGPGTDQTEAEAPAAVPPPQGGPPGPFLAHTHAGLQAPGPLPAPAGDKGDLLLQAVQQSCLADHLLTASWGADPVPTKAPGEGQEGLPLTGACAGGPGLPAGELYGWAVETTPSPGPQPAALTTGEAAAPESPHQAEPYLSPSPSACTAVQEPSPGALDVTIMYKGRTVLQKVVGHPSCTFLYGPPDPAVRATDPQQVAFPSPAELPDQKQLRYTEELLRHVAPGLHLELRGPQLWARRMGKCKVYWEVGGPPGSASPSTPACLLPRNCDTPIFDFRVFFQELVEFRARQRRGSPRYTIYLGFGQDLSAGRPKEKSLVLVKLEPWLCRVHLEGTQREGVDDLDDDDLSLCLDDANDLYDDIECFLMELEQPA
Sequence | fitted relative affinity [z-score]
GTCCCTGAATGAAAACATCATGTGCTA | 0.766
TCATTTCCCACTTTCACACTGTGCTAG | 5.56
TCATGTGTGTGTATGTGACTGTGCTAG | 1.11
TCAGGCCTCTTGCTCAGACTGTGCTAG | -0.233
TCATACCTCATCTTCCTCACTGTGCTA | 2.12
TTAGGACTCCTACTGCTTTAGTGCTAG | 0.562
GACGGTTTCGGGGCTGGGGACGTGCTA | 2.62
TCCATTATTGCTTCCTCTTTGTGCTAG | 2.77
GACGATCTCGGTTTCGGGACGTGCTAG | 3.55
TCAACTCTAATATTGAGACTGTGCTAG | -0.236
GACGCTTTCAGACTGGAGACGTGCTAG | 1.21
GACGGACTGGACTTTCGGGCCGTGCTA | 1.02
TTAGGACTGCTTATCCTTTGGTGCTAG | 0.407
GTCGGTCTCCTACTGCTGACGTGCTAG | 1.29
TCCTCTTTCACTGCTCCCCACGTGCTA | 3.19
GACGGACTGCTACAGCTGACGTGCTAG | -0.0647
TTACGACTGCTTATCCTTTAGTGCTAG | 1.14
GAGGGTTTCGGTATCGGGACGTGCTAG | 5.19
TCCAATTCTCTTTTCACTTTGTGCTAG | 3.87
TTAGGTATCGAAACTGGGTTAGTGCTA | 0.777
CTTTACTTCACTCTCTGCTTGTGCTAG | 1.78
GGAGTTTTCTCATTCGTCATGTGCTAG | 2.19
TTAGAACTGAGTAACGATTAGTGCTAG | -0.903
TTAGGACTGCTACTGCTTTAGTGCTAG | -0.157
GACGGTTTTGACTATCGGGACGTGCTA | 0.786

Block 2 — target: CCNE1, cyclin fold, Cln2 fusion (human); method: yeast growth competition, sequencing; medium: yeast; setting: weak parent motif; baseline: not given; reading: higher = stronger binding
Parent: MICAL3 docking peptide (human); LQLRRQLSFSEDS
Variant | normalised enrichment score
L3S | 1.17
S10L | 0.52
E11N | 0.864
L3G | 1.7
D12M | 1.27
S10R | 0.688
D12N | 0.978
Q6G | 0.188
R5W | 0.384
D12R | 0.494
F9P | 0.0982
R4H | 0.0783
R5Q | -0.376
F9Y | 1.12
S8M | 0.715
S8Y | 0.429
L3H | 2.48
Q6D | -0.119
Q2W | 0.325
R4P | 0.721
L7K | 0.105
S10K | 0.22
D12K | 0.544
L7W | 0.256
L3V | 5.99

Block 3 — method: protein binding microarray; form: double-stranded DNA, one strand shown; medium: in vitro; tested at: not given; baseline: not given; reading: higher = stronger binding
Target: Histone acetyltransferase KAT6A, winged helix 2, GST fusion (KAT6A, Homo sapiens, UniProt Q92794, residues 85-181)
Setting: 8-mer, flanks averaged, mean of 2 arrays, mostly near background
Construct (chain): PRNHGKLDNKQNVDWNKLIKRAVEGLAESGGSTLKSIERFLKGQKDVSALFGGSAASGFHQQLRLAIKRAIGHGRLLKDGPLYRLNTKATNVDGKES
Sequence | E-score
CCTCGGGA | 0.0756
CCCTTCGC | -0.118
CGAGCGGC | 0.236
CTTCACAA | -0.155
AACATAAT | -0.188
GAAACTGA | -0.0242
AGCAGGGG | 0.126
TCGGATCA | 0.0432
AACCTCAA | -0.104
CGACCCCA | 0.0555
CTGCGGTA | 0.0762
GCATCTTA | -0.00357
ATGGTGGC | -0.195
ATGTCTAG | 0.111
CGATGACC | 0.0465
CTTTTGGC | 0.144
GGAGCACA | 0.0646
GAACGCCC | 0.0671
GAAATCGC | 0.168
GTTCGTTA | 0.0743
CAGAACCA | 0.0762
ATAGATTC | -0.0144
CCTTGCCG | 0.149
AGTCCCGA | 0.00653
CCTGCACG | 0.033

Block 4 — method: RNA Bind-n-Seq; form: RNA; medium: in vitro; tested at: 365 nM; baseline: no-protein control; reading: higher = stronger binding
Target: RNA binding protein fox-1 homolog 2, RRM domain, GST-SBP tag (RBFOX2, Homo sapiens, UniProt O43251-10, residues 100-194)
Setting: natural RNA segment, single round, ends assumed
Constant ends, left off below: GGGAGUUCUACAGUCCGACGAUC … UGGAAUUCUCGGGUGCCAA
Construct (chain): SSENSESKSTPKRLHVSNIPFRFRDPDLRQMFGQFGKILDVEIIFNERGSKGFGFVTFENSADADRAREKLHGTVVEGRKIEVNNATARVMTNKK
Sequence | RBNS enrichment (R)
UCCACCCACACCUAAGUCACAGAAUUUCUAAGUUCCCCAACUACUCUCACACCCUUUUAAAGAUAAAGUAUGUUGUAACCAGGAUGUCUUAAAUGAUUCUUUGUGUACCU | 0.445
AAGCUGUCUCUCUGACACCAGUGGUAAAAAAGCAAGUAGAAUAGUUUCUGAGUCUGUGUUGCAGCCUCUGACACGUGGCUCACCGCUGUCAUUUGGGGGAUGGAAUGAAC | 0.548
UGUCAGCCAGAAAAAAGGAGAGGUCAAAGGUCUGUUCUUCCUGCUACACAGGGUCUGGUUUUAAAAGUAGAGGGAAACCUCUCCUCCCCUGGUCUUUGUAGCCAUCUUUG | 0.535
UCCAUGUAGUUCCGACUGCAGCAGUGUCUUAACUGAGUAGUCCAUUAAAGUACAAGUUGAUCAUUGCCCCAAGGCUCCUUUCCUUUCUGCUUGUAUUCCCUGGAUACUCU | 0.338
AAGUGCCCUUCAAAAGGACCCUGUUCACUGCUGCACUUUUCAAUGAAUUAAAAUUUAUUUCUGUUCUGUGGGAAUGUGUCCUUUGUUUUAGUUCACAAGUAGUAAUUUUG | 0.338
AUAGCAAAACAAGUGCAGUGUAUUAAAGCUAAACACUACAUUGAAACGCAAACAAAAUUCUGGUGAAAUAACUGGGCUGUUGAUGCAGGUCAGGUGGAAGCUGAGAAAUA | 0.463
UGGUUGAGCCUCUGGAGAUCAUUGUAACCAAUCCUGCCAGACCUGUUUGGGGCAGUGGGGAGCAAACCUAGAUAAGGACCUGUUUGGGGCAGCAGGGAGCAAAAUCUCCU | 0.657
GACCUCCGUUUGUACAUUCCAUCACACCCAGCAAUAGCUGUACAUUGUAGUCAGCAACCAUUUUACUUUGUGUGUUUUUUCACGACUGAACACCAGCUGCUAUCAAGCAA | 0.488
CCUGCAAGGGACAGGAAGGUCUGAUUUGCAGGAUUUUUAGAGCAUUAAAAUAACUAUCAGGCAGAAGAAUCUUUCUUCUUGCCUAGGAUUUCAGCCAUGUGCGUGCGCUC | 0.487
AUAAUUUUCUUUCCUUAGAAACCUGAGAGAAUGCUAGUCAUAACUGUACUAGUUACUAUGAAAAUGGAAAUAAUUAUCUUAGAAUAUUUUCAAAGUAGAGCGUGAGCAUG | 0.784
CAUAUGGGGAAUGUGUGUUUAUGUACCAGAUGGGGAGUGUUGAGGGGAUAUGGUGGCUCUGUGAUCUGUUUGUCCAUUUGUGUCCAGUGUUGACCUGCGUUACUGGAACU | 34.6
AUUUCCCCAUGGGCUUCUAAAAUGUCACCAUCUCCUCCCCUGCUGUGUCCUACUCCAUUUACUGGUUACAAGGUGAUGUCAACAAGAGAAGCUAUCACAACACCAGGGCU | 0.396

A few entries again (block 3):
Sequence | E-score
AACCTCAA | -0.104
CGACCCCA | 0.0555
TCGGATCA | 0.0432
CCCTTCGC | -0.118
ATGTCTAG | 0.111
CCTTGCCG | 0.149
CCTGCACG | 0.033
GGAGCACA | 0.0646
GAACGCCC | 0.0671
